Assay results collected from several papers.
Every numbered part comes from another study and shows a few of its results, in no order. Positions count from the first letter of the parent shown.

Sample 1 — technique: RNA Bind-n-Seq; molecule type: RNA; sample: in vitro; concentration: 200 nM; notes: whole 134-nt RNA, ends assumed; with: 150 mM KCl; reference: input library; reading: higher = stronger binding
Target: Fragile X messenger ribonucleoprotein 1, C-terminal low-complexity region (Fmr1, Mus musculus, UniProt P35922)
All sequences stand within: GGGAGUUCUACAGUCCGACGAUC … UGGAAUUCUCGGGUGUCAAGG
Sequence	log2 enrichment
AAGUCCUGUGCUACACAUCGUAUGUACCGAAUCGGUUUUUUUGGAAAAAGGAAAGGAAAGUAUUAUGUUACGCCGUUCGGAUCUGCACUU	-1.06
UUAAGGAAGGACACUGAGUCAUGCACAAGUCCUUGCCUUCUUGGUGCCCCUCGGAAAGCACAAGACCCCUCCUCUGCUGGGUGUGAUCAA	-0.0827
ACCAUGCAGGUGGGCAUCUUUGGGAAGUGGGGCAAGGGGGGGAUAGGUAGGGGGGUAACACUUUGGGAACAGGUGGUCCCAGGUCGUUUC	0.548
CUGUGCUACACAUCGUAUGUACCGAAUCGGGUUUUUUUGGGGUUUUUUUGGGUUUUUUUGGAAAGUAUUAUGUUACGCCGUUCGGAUCUG	-0.63
UCCUGUGCUACACAUCGUAUGUACCGAAUCGGAAAAAAAGGAAAAAAAGGUUUUUUUGGAAAGUAUUAUGUUACGCCGUUCGGAUCUGCA	-0.536
UCCUGUGCUACACAUCGUAUGUACCGAAUCGGGGAAAAAAGGGAAAAAAGGAAAAAAGGAAAGUAUUAUGUUACGCCGUUCGGAUCUGCA	-0.245
AGGUCAUGGAUCAAAAAGAACAUAAAUUGAAUGGGAAGGUGAUUGAUCCUAAAAGGGCCAAAGCCAUGAAAACAAAAGAGCCGGUUAAAA	-1.11
CCUCAAGUCCUGUGCUACACAUCGUAUGUACCGAAUCGGUUGGGGUUGGUUGGAAAGUAUUAUGUUACGCCGUUCGGAUCUGCACUUCCA	0.0678
CUGUGCUACACAUCGUAUGUACCGAAUCAAAUUUUUUUAAACCCCCCCAAAUUUUUUUAAAAAAGUAUUAUGUUACGCCGUUCGGAUCUG	-0.346
CUCCUGGAGUGGAUCCGGCGCACCAUCCCCUGGCUGGAGGACCGUGUGCCCCAAAAGACUAUCCAGGAGAUGCAGCAGAAGCUGGAGGAC	-1.7
CAAGUCCUGUGCUACACAUCGUAUGUACCGAAUCGGGUUUGGGUUUGGGUUUGGGAAAGUAUUAUGUUACGCCGUUCGGAUCUGCACUUC	1.2
UCCUGUGCUACACAUCGUAUGUACCGAAUCGGGGAAAAAAAGGGGUGGGGUUUUUGGGGAAAGUAUUAUGUUACGCCGUUCGGAUCUGCA	0.708
UGGGAGGUGGAUUUUGUUUAUUUUCUUAGCUCAUUUCCAGGGGUGGGAAUUUUUUUUUAAUAUGUGUCAUGAAUAAAGUUGUUUUUGAAA	0.21
CUCAAGUCCUGUGCUACACAUCGUAUGUACCGAAUCGGGUUUGGUUUGGUUUGGAAAGUAUUAUGUUACGCCGUUCGGAUCUGCACUUCC	-0.266

Sample 2 — technique: universal PBM; molecule type: double-stranded DNA, one strand shown; sample: in vitro; concentration: 600 nM; reading: higher = stronger binding
Target: Sal-like protein 4, full length isoform A (SALL4, Homo sapiens, UniProt Q9UJQ4, residues 1-1053)
Sequence of UniProt Q9UJQ4 (whole entry, looked up): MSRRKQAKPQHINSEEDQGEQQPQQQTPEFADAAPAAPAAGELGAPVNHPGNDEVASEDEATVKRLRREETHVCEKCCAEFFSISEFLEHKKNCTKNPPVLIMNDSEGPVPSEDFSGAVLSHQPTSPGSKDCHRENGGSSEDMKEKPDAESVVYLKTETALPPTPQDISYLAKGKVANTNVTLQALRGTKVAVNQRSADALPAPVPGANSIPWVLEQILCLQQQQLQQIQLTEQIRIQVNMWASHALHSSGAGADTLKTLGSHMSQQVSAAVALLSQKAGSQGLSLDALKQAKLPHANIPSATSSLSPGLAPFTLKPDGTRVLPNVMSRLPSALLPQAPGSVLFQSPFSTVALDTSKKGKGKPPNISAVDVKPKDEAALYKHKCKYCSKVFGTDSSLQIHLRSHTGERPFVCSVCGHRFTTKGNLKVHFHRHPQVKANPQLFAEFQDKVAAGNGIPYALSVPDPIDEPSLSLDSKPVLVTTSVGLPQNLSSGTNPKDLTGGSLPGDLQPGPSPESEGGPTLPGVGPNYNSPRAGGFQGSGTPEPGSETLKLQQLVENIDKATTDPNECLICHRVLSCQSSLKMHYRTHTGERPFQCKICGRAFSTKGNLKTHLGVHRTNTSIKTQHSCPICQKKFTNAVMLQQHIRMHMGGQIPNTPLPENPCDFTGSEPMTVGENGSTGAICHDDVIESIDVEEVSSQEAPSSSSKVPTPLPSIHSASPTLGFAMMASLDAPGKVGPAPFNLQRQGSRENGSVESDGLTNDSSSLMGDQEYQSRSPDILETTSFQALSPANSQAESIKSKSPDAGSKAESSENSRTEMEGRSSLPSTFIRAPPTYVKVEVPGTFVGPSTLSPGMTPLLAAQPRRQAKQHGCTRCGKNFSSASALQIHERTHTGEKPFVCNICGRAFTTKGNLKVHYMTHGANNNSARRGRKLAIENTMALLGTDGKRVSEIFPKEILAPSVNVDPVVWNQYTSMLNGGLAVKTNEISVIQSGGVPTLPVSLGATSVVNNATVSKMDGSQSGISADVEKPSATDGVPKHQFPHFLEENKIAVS
Notes: 8-mer, flanks averaged, mean of replicates
Sequence	E-score
GTACCAAC	-0.113
ATAGTGAG	0.202
GATTTCGC	0.0881
CAATGTTA	0.28
CGCCCATC	-0.216
GCGACCAC	-0.269
CACTCACG	-0.217
AACAGCCC	-0.2
ACTTGCCA	-0.104
GCCACAGA	-0.234
CGTTTGGC	-0.0869
CCAATTCC	-0.07
AGCCTGGA	-0.265
CCGCGCGC	-0.318
CCTATAGG	-0.105
TCGCTGCA	-0.101
CAGATGCA	-0.0882
AGAAAGTG	-0.122
ATCACGCC	-0.134
CTTAATCC	0.0317
CGTAGTTA	0.239
GTTGCACA	-0.0712
AGAAGATC	-0.0947
GGAATAAA	0.294
ATCAGTCC	-0.294

Sample 3 — technique: DHFR PCA, deep sequencing; sample: yeast; with: (+)-ABA 0.032 µM; reference: wild-type fitted maximum; reading: higher = stronger binding
Target: ABI1, truncated, D143A, DHFR fusion (Arabidopsis thaliana)
Notes: methotrexate growth selection, single substitutions
Starting sequence: PYL1, truncated, DHFR fusion (Arabidopsis thaliana); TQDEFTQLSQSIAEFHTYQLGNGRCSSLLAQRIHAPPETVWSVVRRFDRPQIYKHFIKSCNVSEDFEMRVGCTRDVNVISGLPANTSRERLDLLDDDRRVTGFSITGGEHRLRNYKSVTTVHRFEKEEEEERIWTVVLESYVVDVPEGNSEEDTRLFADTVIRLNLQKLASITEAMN
Variant	relative binding score [%]
H110K	28.4
P146E	2.27
F5T	4.67
N114M	-6.79
T120Y	-1.93
E14I	-6.18
L82P	-0.121
T154K	0.677
R74W	-2.49
R45E	-2.83
T39Q	14.7
T135S	12.8
V118I	19.8
D92K	2.09
A13W	-2.84
V142D	2.19

Sample 4 — target: CCND3, cyclin fold, Cln2 fusion (human); technique: yeast growth competition, sequencing; sample: yeast; notes: weak parent motif; reference: not given; reading: higher = stronger binding
Starting sequence: CDC42EP1 docking peptide (human); SLVVGKLSFDSSP
Variant	normalised enrichment score
SLVVGKLSFDSSA [P13A]	-0.0369
SLVVAKLSFDSSP [G5A]	-0.396
ALVVGKLSFDSSP [S1A]	-0.0413
SLVVGKLSADSSP [F9A]	-0.22
SLVVGKLSFDASP [S11A]	-0.274
SAVVGKLSFDSSP [L2A]	-0.242
SLVVGKASFDSSP [L7A]	-0.0447

Sample 5 — technique: protein-binding microarray; molecule type: double-stranded DNA, one strand shown; sample: in vitro; concentration: 2540 nM top; notes: 60-bp whole probe; with: salmon DNA 0.4 mg/ml; reference: random background probes; reading: higher = stronger binding; all sequences stand within: GCCTAGCAC … GTCTTGATTCGCTTGACGCTGCTG
Target: Interferon regulatory factor 3, full length, phosphomimetic (IRF3, Homo sapiens, UniProt Q14653, residues 1-427, S386D/S396D/S398D/S402D/T404D/S405D)
Construct (chain): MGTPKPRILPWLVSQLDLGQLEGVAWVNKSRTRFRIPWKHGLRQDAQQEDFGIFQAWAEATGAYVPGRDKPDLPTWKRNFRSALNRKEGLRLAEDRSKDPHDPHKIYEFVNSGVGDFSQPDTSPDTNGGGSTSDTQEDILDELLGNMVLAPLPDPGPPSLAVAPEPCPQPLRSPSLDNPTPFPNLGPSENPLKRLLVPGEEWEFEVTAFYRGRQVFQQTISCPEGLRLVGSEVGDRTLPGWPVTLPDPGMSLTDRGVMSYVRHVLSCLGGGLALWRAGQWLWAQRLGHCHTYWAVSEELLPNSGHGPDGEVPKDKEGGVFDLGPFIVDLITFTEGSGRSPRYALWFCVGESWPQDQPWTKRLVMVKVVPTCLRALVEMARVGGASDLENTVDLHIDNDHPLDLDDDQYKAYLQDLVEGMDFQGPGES
Sequence	fitted relative affinity
GTCGGTTTCCTTTCCCTGACGTGCTAG	11.2 z-score
TTAGGTTTCTGACTGGGTTAGTGCTAG	1.76 z-score
CACGATTTCGGGTATCGAGACGTGCTA	1.3 z-score
GACGGACTGGGCACTGGGGACGTGCTA	-1.18 z-score
CTAGGTATCGGTCTCGGTTAGTGCTAG	4.69 z-score
TTAGATTTCAGTATCTATTAGTGCTAG	2.07 z-score
TATTTTTTTCTAATTGAAATGTGCTAG	1.52 z-score
GACGAACTGGGGCTTCGAGACGTGCTA	-0.841 z-score
TTGGATATCGGGACTGGATTAGTGCTA	-0.259 z-score
GACGAACTGAGACTGGAGTCGTGCTAG	-0.166 z-score
TCATCCCTAATTCTGATACTGTGCTAG	0.764 z-score
GACGGACTGGACTATCGGCACGTGCTA	-0.548 z-score
TTCACTTTCCAAAGCGTGAGGTGCTAG	4.47 z-score
TCATGTTTTCATTTTATACTGTGCTAG	3.21 z-score
GGAAGCAGTGAGAAGGTGGCGTGCTAG	-0.883 z-score
TATTATATCTGTGTTATTAAGTGCTAG	0.766 z-score
TTAGGTCTGGGTTTCGGTTAGTGCTAG	2.63 z-score

Sample 6 — technique: protein binding microarray; molecule type: double-stranded DNA, one strand shown; sample: in vitro; concentration: not given; reference: not given; reading: higher = stronger binding
Target: Histone acetyltransferase KAT6A, winged helix 1, GST fusion (KAT6A, Homo sapiens, UniProt Q92794, residues 1-85)
Notes: 8-mer, flanks averaged, mean of 2 arrays, mostly near background
Construct (chain): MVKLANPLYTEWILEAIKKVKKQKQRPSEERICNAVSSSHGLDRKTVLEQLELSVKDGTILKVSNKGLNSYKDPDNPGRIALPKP
Sequence	E-score
GGACGGTA	0.257
ATAGTGTC	-0.00092
CCCAGTCC	-0.235
AACTCTAC	-0.105
CGGCAGAA	0.234
ACCCACTG	-0.0307
CCTTGCCG	0.258
TTCTTCAA	-0.118
ATAGTAAC	-0.0323
CTGTTGGA	-0.196
ACCTAACG	-0.029
GCCCCGTA	0.227
ACGTGAGC	-0.0347
ATTGAATG	-0.255
GTTCTTAA	-0.086
CAGTTGAC	-0.0618
TACAGATA	-0.104
GCTGCATA	-0.118

Mixed results
Substance	target	assay	test system	setting	scale	quantity	value
PhoQ, residues 284 288 289 292 302 303 SNGLAW	PhoP, residues 12 14 15 18 19 VHSCL (Escherichia coli, UniProt P23836)	Sort-seq, item: YFP reporter	E. coli	PhoQ-PhoP variant library, with: 10 µM Mg2+	reference: high Mg2+ state, higher = stronger signaling	fold induction	12.4

For quick reference, copied from above (sample 2):
Sequence	E-score
AACAGCCC	-0.2
ACTTGCCA	-0.104
GCCACAGA	-0.234
CGTTTGGC	-0.0869
CCAATTCC	-0.07
AGCCTGGA	-0.265
CCGCGCGC	-0.318
CCTATAGG	-0.105
TCGCTGCA	-0.101
CAGATGCA	-0.0882
AGAAAGTG	-0.122
ATCACGCC	-0.134
CTTAATCC	0.0317
